Measurements collected from several papers.
Lines come from different studies, so protocols differ. ± gives the spread as reported.
BTK: Tyrosine-protein kinase BTK (BTK, Homo sapiens, UniProt Q06187)
Chain of UniProt Q06187 (whole entry, looked up): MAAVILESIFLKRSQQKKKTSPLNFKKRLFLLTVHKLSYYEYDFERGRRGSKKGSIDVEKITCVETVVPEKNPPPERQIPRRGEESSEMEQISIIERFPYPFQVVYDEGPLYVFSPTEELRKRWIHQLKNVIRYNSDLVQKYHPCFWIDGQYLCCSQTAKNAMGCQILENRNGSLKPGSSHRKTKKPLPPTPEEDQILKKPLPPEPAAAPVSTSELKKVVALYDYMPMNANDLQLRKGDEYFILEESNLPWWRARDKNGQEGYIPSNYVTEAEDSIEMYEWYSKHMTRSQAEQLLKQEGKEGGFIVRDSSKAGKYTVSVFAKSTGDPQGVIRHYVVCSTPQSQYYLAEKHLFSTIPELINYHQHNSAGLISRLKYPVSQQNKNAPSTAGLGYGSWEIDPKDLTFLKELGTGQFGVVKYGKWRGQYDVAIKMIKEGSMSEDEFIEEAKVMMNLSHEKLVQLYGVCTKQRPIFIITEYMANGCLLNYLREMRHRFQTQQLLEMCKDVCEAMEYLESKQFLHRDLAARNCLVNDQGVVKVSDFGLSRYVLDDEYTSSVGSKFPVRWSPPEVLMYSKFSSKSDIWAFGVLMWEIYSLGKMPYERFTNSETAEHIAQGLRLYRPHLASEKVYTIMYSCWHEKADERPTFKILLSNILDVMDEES
UCHL1: Ubiquitin carboxyl-terminal hydrolase isozyme L1 (UCHL1, Homo sapiens, UniProt P09936)
Chain of UniProt P09936 (whole entry, looked up): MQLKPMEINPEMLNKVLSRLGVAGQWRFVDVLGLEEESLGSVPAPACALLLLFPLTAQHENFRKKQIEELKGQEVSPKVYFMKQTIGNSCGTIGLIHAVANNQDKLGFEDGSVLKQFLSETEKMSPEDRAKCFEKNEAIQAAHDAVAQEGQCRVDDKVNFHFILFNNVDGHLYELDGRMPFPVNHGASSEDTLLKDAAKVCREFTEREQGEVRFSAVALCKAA

C=CC(=O)N1CCC(C(=O)NCC(=O)N2CCN(c3nc(-c4cnc(N)nc4C(F)F)nc(N4CCOCC4)n3)CC2)CC1
remaining binding (BTK; KINOMEscan; 1 µM): 66%

C=CC(=O)N1CCC[C@@H]1Cn1nc(-c2ccc(Oc3ccccc3)cc2F)c2c(N)ncnc21
residence time (BTK; Ramos): 1380 ± 180 min

O=C1NC(=O)/C(=C/c2ccc(-c3ccc(F)cc3O)o2)S1
remaining activity (BTK; enzyme activity; 10 µM): 45%

Cc1cc(Nc2cc(N3CCN(C)CC3)nc(Sc3ccc(NC(=O)C4CC4)cc3)n2)[nH]n1
remaining activity (BTK; kinase activity, KinaseProfiler; 0.03 µM, species human; relative to: control): 91%

COc1cc(-c2cncc3c2CN(C)Cc2cc(N4CCNCC4)ccc2-3)cc(OC)c1OC
remaining activity (BTK; kinase activity; 1 µM, human enzyme, with: ATP 10 µM; relative to: DMSO control): 107%

CCN(CC)c1ccc(C2=NNC(=O)CC2C)cc1[N+](=O)[O-] (stereo not drawn)
remaining activity (BTK; enzyme activity, inhibitor; 10 µM; relative to: vehicle): 127%

CC(C)(C)C=C(C#N)C(=O)N1CCC[C@@H](n2nc(-c3ccc(Oc4ccccc4)cc3)c3c(N)ncnc32)C1
residence time (BTK; fluorescence competition; room temperature): > 12000 min

C1=C/COCc2cc(ccc2OCCN2CCCC2)Nc2nccc(n2)-c2cccc(c2)COC/1
percent of control (BTK; concentration not given): 100%

COc1cc(F)ccc1-c1ncnc(Nc2cccc(C[S@](C)(=N)=O)c2)n1
remaining activity (BTK; kinase activity; 10 µM, with: 10 µM ATP): 90%

O=C(NC1CCC1)c1ccc2nc(-c3cccc(NS(=O)(=O)NCCN4CCCCC4)c3)cn2c1
remaining activity (BTK; enzyme activity; 10 µM): 78%

N#CC(=Cc1ccc(F)cc1)C(=O)Nc1ccccc1C(F)(F)F
labelling (UCHL1; covalent, intact protein LC-MS; 12.5 µM): 10.1%

C#Cc1cccc(Oc2ccc(-c3nn([C@@H]4CCCN(C(=O)C=C)C4)c4ncnc(N)c34)cc2)c1
SILAC ratio (BTK; ABPP-SILAC; 1 µM, 1 h; relative to: DMSO): 20

O=C(Cc1ccc(-c2ccccc2)cc1)Nc1cc(C2CCC2)[nH]n1
activity (BTK; inhibitor; concentration not given): inactive

C=CC(=O)N1CCC(COCC(=O)N2CCN(c3nc(-c4cnc(N)nc4C(F)F)nc(N4CCOC[C@@H]4C)n3)CC2)CC1
remaining binding (BTK; KINOMEscan; 1 µM; relative to: DMSO control): 100%

C[C@@H](c1ccc(-n2cnc3c(N)ncnc32)cc1)N1CCc2nn(C)c(Cc3ccccc3)c2C1=O
remaining binding (BTK; KINOMEscan; 0.1 µM; relative to: DMSO): 81%

CCc1cccc(CC)c1NC(=O)C(C#N)=Cc1ccc(C#N)cc1
labelling (UCHL1; covalent, intact protein LC-MS; 12.5 µM): 40.2%

C=CC(=O)Nc1cccc(Oc2nc(Nc3ccc(N4CCN(C)CC4)cc3)nc3ccoc23)c1
kinact/KI (Tyrosine-protein kinase BTK, activated (BTK, Homo sapiens, UniProt Q06187)): 293000 M⁻¹ s⁻¹

CCCOc1ccc(OC)c(F)c1C(=O)c1ccc(C(=O)N[C@@H]2CNC[C@H]2NC(=O)c2ccc3[nH]ncc3c2)cc1
remaining activity (BTK; enzyme activity; 10 µM): 78%

For quick reference, copied from above:
C[C@@H](c1ccc(-n2cnc3c(N)ncnc32)cc1)N1CCc2nn(C)c(Cc3ccccc3)c2C1=O
remaining binding (BTK; KINOMEscan; 0.1 µM; relative to: DMSO): 81%

Cc1cc(Nc2cc(N3CCN(C)CC3)nc(Sc3ccc(NC(=O)C4CC4)cc3)n2)[nH]n1
remaining activity (BTK; kinase activity, KinaseProfiler; 0.03 µM, species human; relative to: control): 91%
